Experimental data from different studies.
Numbered parts are unrelated; each lists some results of a single study. Values joined by “and” are separate records of one study, mostly repeats; a detail may differ.
Sequence of UniProt P35372 (whole entry, looked up): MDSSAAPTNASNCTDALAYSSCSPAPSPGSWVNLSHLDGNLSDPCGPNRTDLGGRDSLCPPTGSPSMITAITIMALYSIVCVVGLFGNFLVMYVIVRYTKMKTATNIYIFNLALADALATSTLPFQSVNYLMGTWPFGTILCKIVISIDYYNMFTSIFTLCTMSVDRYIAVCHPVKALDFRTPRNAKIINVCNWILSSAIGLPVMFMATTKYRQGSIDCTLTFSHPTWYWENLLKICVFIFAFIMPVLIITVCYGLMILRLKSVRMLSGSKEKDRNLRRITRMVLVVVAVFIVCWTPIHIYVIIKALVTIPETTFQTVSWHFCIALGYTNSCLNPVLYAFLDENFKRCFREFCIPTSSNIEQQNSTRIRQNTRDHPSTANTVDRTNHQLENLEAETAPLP
Sequence of UniProt P05177 (whole entry, looked up): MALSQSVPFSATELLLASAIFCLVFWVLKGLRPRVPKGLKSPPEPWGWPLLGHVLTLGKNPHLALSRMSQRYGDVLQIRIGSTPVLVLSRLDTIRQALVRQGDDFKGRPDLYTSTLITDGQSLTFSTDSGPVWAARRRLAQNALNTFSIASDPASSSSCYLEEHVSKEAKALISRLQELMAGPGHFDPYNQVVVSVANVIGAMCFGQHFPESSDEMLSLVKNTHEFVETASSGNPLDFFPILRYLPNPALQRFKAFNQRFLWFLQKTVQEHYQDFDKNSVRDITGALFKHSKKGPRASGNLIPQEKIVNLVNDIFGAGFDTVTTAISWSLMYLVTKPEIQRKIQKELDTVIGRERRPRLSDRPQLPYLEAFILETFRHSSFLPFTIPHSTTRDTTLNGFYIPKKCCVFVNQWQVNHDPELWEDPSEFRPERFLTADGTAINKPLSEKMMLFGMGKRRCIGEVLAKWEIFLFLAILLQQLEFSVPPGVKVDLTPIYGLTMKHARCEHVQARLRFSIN

Study 1 — read-out: enzyme activity; matrix: human liver microsomes; relative to: negative control
SMILES: Cn1cc(-c2cccc(CN3CCC4(CC3)COc3c4ccc4c3CN([C@H]3CCC(=O)NC3=O)C4=O)c2)cn1
CYP3A4: Cytochrome P450 3A4 (CYP3A4, Homo sapiens, UniProt P08684)
Sequence of UniProt P08684 (whole entry, looked up): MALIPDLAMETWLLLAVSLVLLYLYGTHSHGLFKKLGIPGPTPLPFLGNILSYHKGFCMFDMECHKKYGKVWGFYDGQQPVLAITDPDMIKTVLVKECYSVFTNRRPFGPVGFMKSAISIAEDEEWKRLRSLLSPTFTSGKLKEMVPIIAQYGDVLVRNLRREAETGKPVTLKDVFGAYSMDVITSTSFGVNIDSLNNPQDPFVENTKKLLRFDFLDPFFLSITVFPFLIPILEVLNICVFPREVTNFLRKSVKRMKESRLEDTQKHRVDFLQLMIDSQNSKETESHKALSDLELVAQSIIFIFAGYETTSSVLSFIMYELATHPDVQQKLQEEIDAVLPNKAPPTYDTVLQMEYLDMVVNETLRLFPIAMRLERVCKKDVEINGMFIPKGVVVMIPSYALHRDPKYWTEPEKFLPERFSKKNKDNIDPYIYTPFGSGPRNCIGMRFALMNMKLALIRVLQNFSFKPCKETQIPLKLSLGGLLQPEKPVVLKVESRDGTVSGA
CYP2C8: Cytochrome P450 2C8 (CYP2C8, Homo sapiens, UniProt P10632)
Sequence of UniProt P10632 (whole entry, looked up): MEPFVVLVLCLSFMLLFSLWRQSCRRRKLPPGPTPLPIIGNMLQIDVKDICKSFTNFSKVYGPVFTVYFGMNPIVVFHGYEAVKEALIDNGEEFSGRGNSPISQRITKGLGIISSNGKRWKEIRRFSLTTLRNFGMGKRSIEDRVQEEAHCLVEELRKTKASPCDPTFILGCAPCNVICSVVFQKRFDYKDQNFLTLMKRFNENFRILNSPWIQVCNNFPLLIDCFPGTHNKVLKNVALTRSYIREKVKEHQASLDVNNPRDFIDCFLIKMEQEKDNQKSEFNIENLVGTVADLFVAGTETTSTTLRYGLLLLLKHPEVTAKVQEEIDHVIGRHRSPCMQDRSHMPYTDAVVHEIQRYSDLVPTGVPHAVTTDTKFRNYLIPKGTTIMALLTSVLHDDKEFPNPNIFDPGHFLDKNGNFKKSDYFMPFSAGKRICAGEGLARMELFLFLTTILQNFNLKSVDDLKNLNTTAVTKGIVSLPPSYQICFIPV
CYP2B6: Cytochrome P450 2B6 (CYP2B6, Homo sapiens, UniProt P20813)
Sequence of UniProt P20813 (whole entry, looked up): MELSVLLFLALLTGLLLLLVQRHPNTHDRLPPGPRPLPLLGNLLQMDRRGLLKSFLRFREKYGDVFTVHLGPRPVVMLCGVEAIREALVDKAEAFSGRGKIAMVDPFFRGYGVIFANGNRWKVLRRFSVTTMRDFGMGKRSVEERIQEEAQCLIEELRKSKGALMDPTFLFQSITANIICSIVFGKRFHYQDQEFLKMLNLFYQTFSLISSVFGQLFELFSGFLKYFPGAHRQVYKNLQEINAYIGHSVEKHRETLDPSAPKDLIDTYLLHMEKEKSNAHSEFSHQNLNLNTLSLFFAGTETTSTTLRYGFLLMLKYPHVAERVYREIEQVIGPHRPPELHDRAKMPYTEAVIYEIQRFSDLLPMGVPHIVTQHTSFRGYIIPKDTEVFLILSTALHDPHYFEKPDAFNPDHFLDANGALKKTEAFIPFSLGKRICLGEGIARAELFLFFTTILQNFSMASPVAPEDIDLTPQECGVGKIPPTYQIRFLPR
| target | tested at | added | remaining activity |
| --- | --- | --- | --- |
| CYP3A4 | 1.11 µM | testosterone substrate | 96.2% |
| CYP3A4 | 10.00 µM | testosterone substrate | 85% |
| CYP2C8 | 10.00 µM | – | 112% |
| CYP2B6 | 0.12 µM | – | 86.2% |
| CYP3A4 | 3.33 µM | midazolam substrate | 84% |
| Cytochrome P450 1A2 (CYP1A2, Homo sapiens, UniProt P05177) | 3.33 µM | – | 89.5% |
| CYP3A4 | 0.37 µM | midazolam substrate | 92.7% |
| CYP3A4 | 10.00 µM | midazolam substrate | 90.1% |
| CYP2B6 | 0.04 µM | – | 83.6% |
| CYP2C8 | 0.0137 µM | – | 106% |

Study 2 — relative to: vehicle
SMILES: C#Cc1cccc2cc(O)cc(-c3ncc4c(N5CC6CCC(C5)N6)nc(OCC56CCCN5CCC6)nc4c3F)c12
| cell line | read-out | technique | tested at | viability |
| --- | --- | --- | --- | --- |
| HEK293 | – | CellTiter-Glo | 13.7 nM | 98% and 102% and 99.5% |
| NCI-H647 | cell proliferation | CellTiter-Glo luminescence | 1 µM | 82.4% and 85.1% and 86% |
| HEK293 | – | CellTiter-Glo luminescence | 0.5229 µM | 90.7% and 89.4% and 93.4% |
| HEK293 | – | CellTiter-Glo | 3.33 µM | 89.4% and 90.7% and 93.4% |
| HEK293 | – | CellTiter-Glo | 123 nM | 98.4% and 97.8% and 101% |
| HEK293 | – | CellTiter-Glo | 10 µM | 92.3% and 91.8% and 87.2% |
| HEK293 | – | CellTiter-Glo luminescence | 1 µM | 91.8% and 87.2% and 92.3% |
| HEK293 | – | CellTiter-Glo | 508 pM | 98.7% and 96.3% and 94.2% |

Mixed results
| SMILES | tested on | assay | test system | setting | endpoint | value |
| --- | --- | --- | --- | --- | --- | --- |
| C#CCN1C(=O)C(O)(C(=O)O)Oc2cc(F)ccc21 (centres unmarked) | Arabidopsis thaliana | – | Col-0 | 6.25 µg/mL, seed germination | root length | 0.94 cm |
| N=C(N)NCCCCCCN1CCC23c4c5ccc(O)c4OC2c2nc4ccccc4cc2CC3(O)C1C5 (centres unmarked) | OPRM1 (Homo sapiens, UniProt P35372) | competitor, radioligand binding | – | 10 pM | normalised specific binding | 94.4% and 121% and 132% |
